Results from different studies.
Lines come from different studies, so protocols differ. Several values in a cell are separate wells, animals, samples, runs or records. ± gives the spread as reported.
Dipeptidyl peptidase 8: Dipeptidyl peptidase 8 (Homo sapiens, UniProt Q6V1X1)
Astl: Astacin-like metalloendopeptidase (Astl, Mus musculus, UniProt Q6HA09)

| SMILES | target or system | test | system | setting | scale | endpoint | value |
| --- | --- | --- | --- | --- | --- | --- | --- |
| N#Cc1cnc2sc(C(=O)O)cc2c1N1CCc2[nH]nc(C(=O)N[C@@H](CC(=O)NCCOCCN3CCOCC3)c3cccc(Br)c3)c2C1 | IL1R1 (Homo sapiens, UniProt P14778) | IL-8 release, antagonist | A-431 | 4000 µM, 18 h, with: IL-1β 5 ng/mL | reference: untreated | remaining activity | 88.1% |
| Nc1ncc(-c2cc(-c3cnn(CC(F)(F)F)c3)ncc2F)nc1C(=O)NC1CNCC(F)C1 (stereo not drawn) | IRAK2 (Homo sapiens, UniProt O43187) | enzyme activity | – | 1 µM | reference: DMSO control | remaining activity | 92.8% |
| CC(C)=CCc1cc(C(=O)/C=C/c2ccc(O)cc2)c(O)cc1O | – | phase I metabolism, substrate | monkey liver microsomes | – | – | Km | 13 ± 2.27 µM |
| CCC1(CC)C(=O)N(c2cccc(CN3CCN(Cc4cccc5cccnc45)CC3)c2)C1=O | Dipeptidyl peptidase 8 | enzyme activity, inhibitor | – | 5 µM | – | remaining activity | 16% |
| C[C@](C(=O)NC1CCOCC1)(c1cncnc1)N(C(=O)[C@H](F)Cl)c1ccc(OC(F)(F)Cl)cc1 | Dipeptidyl peptidase 8 | enzyme activity, inhibitor | – | 10 µM | – | remaining activity | 102% |
| Cc1nn(-c2cccc(N)c2)c(=O)c2cnc(Nc3ccc(N4CCNCC4)cc3)nc12 | CLK1 (Homo sapiens, UniProt P49759) | kinase activity, inhibitor, SelectScreen kinase profiling | – | – | – | IC50 | > 10000 nM |
| CC(C)[C@@H]1NC(=O)[C@H](Cc2ccccc2)NC(=O)CSC[C@@H](C(N)=O)NC(=O)[C@H](CCC(=O)O)NC(=O)[C@H](CO)NC(=O)[C@H](Cc2c[nH]c3cccc(Cl)c23)NC(=O)[C@H](C2CCCCC2)NC(=O)[C@H](C(C)C)NC(=O)[C@H](Cc2ccc(O)cc2)NC(=O)[C@H](CC(=O)O)NC(=O)[C@H](Cc2c[nH]c3ccccc23)NC(=O)[C@H](Cc2ccc(N)nc2)NC(=O)[C@H](Cc2c[nH]c3ccc(Cl)cc23)NC(=O)[C@H](CCC(=O)O)NC1=O | Interleukin-1 receptor-like 2 (IL1RL2, Homo sapiens, UniProt Q9HB29) | IL-8 release, antagonist | A-431 | 3.2 µM, 18 h, with: IL-36γ | reference: untreated | remaining activity | 86.2% |
| COCC12C(=O)NC3C4(C(OC)CC1O)C1CC5(O)C(OC)C(O)C(OC(C)=O)(C1C5OC(=O)c1ccccc1)C3(O)C(OC)C24 (stereo not drawn) | VRK1 (Homo sapiens, UniProt Q99986) | kinase activity, inhibitor, ProQinase kinase profiling | – | 25 µM | reference: control | remaining activity | 101% and 109% |
| COC(=O)c1cc2cc3c(cc2oc1=O)N(CC(=O)NC(Cc1cccc(Cl)c1)C(=O)NCC=CS(=O)(=O)c1ccccc1)CCC3 (stereo not drawn) | Rhodesain (rhodesain, Trypanosoma brucei rhodesiense, UniProt Q95PM0) | enzyme activity, inhibitor, fluorescence | – | 5 µM | – | remaining activity | 40% |
| O=C(CN(Cc1ccc(Cl)c(O)c1F)Cc1ccc(Cl)c(O)c1F)NO | Astl | enzyme activity, inhibitor, fluorogenic | – | 5 µM | – | remaining activity | 20 ± 5% |
| COC(=O)[C@@]1(C)C=C(C(=O)Nc2cccc(C(=O)Nc3ccc(Nc4nccc(-c5cccnc5)n4)c(C)c3)c2)C(=O)CC1 | MAPK1 (Homo sapiens, UniProt P28482) | enzyme activity, inhibitor | – | 44.44 µM, unit not given | reference: vehicle | remaining activity | 0.583 and 0.669 and 0.622 |
| COC1CN([C@H]2CC[C@H]([C@@]3(C)Oc4c(Cl)cc(C(=O)NCc5c(SC)cc(C)[nH]c5=O)c(C)c4O3)CC2)C1 | – | RNA-seq, item: MEIOC mouse homolog | mouse, HT-1376 xenograft, whole blood | dose not given | reference: vehicle | log2 fold change | 2.01 |
| O=C(CCN(Cc1cccc(C(=O)O)c1)Cc1cccc(C(=O)O)c1)NO | Astl | enzyme activity, inhibitor, fluorogenic | – | 0.25 µM | – | remaining activity | 86 ± 4% |
| Cc1cc(NC(=O)c2cccc(NC(=O)/C(C#N)=C/C(C)(C)C)c2)ccc1Nc1nccc(-c2cccnc2)n1 | Mitogen-activated protein kinase 8, phosphorylated (MAPK8, Homo sapiens, UniProt P45983) | enzyme activity after dialysis, inhibitor | – | 10 µM, 2 days, unit not given | reference: no inhibitor | remaining activity | 0.403 |
| COc1ccc(NC(=O)c2c(Nc3ccccc3)sc(C(=O)N/N=C/c3ccc(OC)c(OC)c3)c2NC(C)=O)cc1 | KDR (Homo sapiens, UniProt P35968) | enzyme activity, inhibitor | – | 10 nM | – | remaining activity | 96% |
| CN(C)C/C=C/C(=O)Nc1ccc2nc(NCCCCCN(C)C)nc(NCCCCCCN(C)C)c2c1 | KMT2C (Homo sapiens, UniProt Q8NEZ4) | enzyme activity, inhibitor, radiometric | – | 50 µM | – | inhibition | 35% |
| O=C(CCN(Cc1cccnc1)Cc1cccnc1)NO | Astl | enzyme activity, inhibitor, fluorogenic | – | 5 µM | – | remaining activity | 63 ± 6% |
| Cc1ncsc1-c1ccc(C(C)NC(=O)C2CC(O)CN2C(=O)C(NC(=O)CCCCCCCCCCN2CCCC(Nc3ncc(Cl)c(Nc4ccccc4S(=O)(=O)C(C)C)n3)C2)C(C)(C)C)cc1 (stereo not drawn) | 22Rv1 | RNA-seq, item: WNT5A mRNA | – | concentration not given | reference: DMSO | log2 fold change | -1.69 |
| CC(C)OCCOCc1ccc(OCC(O)CN(N=O)C(C)C)cc1 (stereo not drawn) | Escherichia coli | Ames test | WP2 uvrA | 1580 µg/plate, 30 % rat S9 | reference: solvent control | revertant fold increase | 0.8 fold |
| COc1ccccc1-c1ccncc1C(=O)Nc1nnc(OCc2ccc(Cl)cc2)s1 | Bifunctional 3'-5' exonuclease/ATP-dependent helicase WRN, residues 500-946 (WRN, Homo sapiens, UniProt Q14191) | ATPase activity, ADP-Glo | – | 1.9 µM | reference: 0 µM cpd | remaining activity | 96% |
| O=C(CN(Cc1cccc(C(=O)O)c1)Cc1cccc(C(=O)O)c1)NO | Astl | enzyme activity, inhibitor, fluorogenic | – | 0.25 µM | – | remaining activity | 109 ± 4% |
| CC(=O)N1c2ccc(-c3ccc(CNC(=O)c4cn5cc(-c6cnc(N)nc6)nc(N6CCOCC6)c5n4)cc3)cc2CC[C@@H]1C | ATM (Homo sapiens, UniProt Q13315) | enzyme activity, inhibitor, radiometric | – | 1 µM | – | remaining activity | 100% |
| CN1CCCNC(=O)c2cccc(c2)C(=O)NCCCN(C)CCCNc2cccc3c2C(=O)c2cccc(c2C3=O)NCCC1 | SAS | RNA-Seq, item: JAGN1 mRNA | – | 1 µM, 6 h | reference: untreated cells | log2 fold change | 0.442 |
| O=C(CCN(Cc1ccc2c(c1)OCO2)Cc1ccc2c(c1)OCO2)NO | Astl | enzyme activity, inhibitor, fluorogenic | – | 0.25 µM | – | remaining activity | 63 ± 5% |
| C=CC(=O)Nc1cccc(Cn2ncc3cnc(Nc4cnn(CCOC)c4)nc32)c1 | GRK7 human | binding, KINOMEscan | – | 100 nM | lower = stronger binding | percent of control | 97% |
| CNS(=O)(=O)Nc1nccc(Cc2c(C)c3ccc(Oc4ncccc4F)cc3oc2=O)c1F | LS-513 | cell viability | – | 7 days | – | IC50 | 8.48 nM |
| CN(Cc1cc(C2CC2)on1)C(=O)c1cccc(-c2ccc3c(c2)CCO3)c1 | acetoacetyl-CoA synthetase (Cryptococcus neoformans) | enzyme activity, inhibitor | – | 31.3 µM | – | remaining activity | 104% |

Excerpt of the above:
| SMILES | target or system | test | system | setting | scale | endpoint | value |
| --- | --- | --- | --- | --- | --- | --- | --- |
| C[C@](C(=O)NC1CCOCC1)(c1cncnc1)N(C(=O)[C@H](F)Cl)c1ccc(OC(F)(F)Cl)cc1 | Dipeptidyl peptidase 8 | enzyme activity, inhibitor | – | 10 µM | – | remaining activity | 102% |
| CC(C)[C@@H]1NC(=O)[C@H](Cc2ccccc2)NC(=O)CSC[C@@H](C(N)=O)NC(=O)[C@H](CCC(=O)O)NC(=O)[C@H](CO)NC(=O)[C@H](Cc2c[nH]c3cccc(Cl)c23)NC(=O)[C@H](C2CCCCC2)NC(=O)[C@H](C(C)C)NC(=O)[C@H](Cc2ccc(O)cc2)NC(=O)[C@H](CC(=O)O)NC(=O)[C@H](Cc2c[nH]c3ccccc23)NC(=O)[C@H](Cc2ccc(N)nc2)NC(=O)[C@H](Cc2c[nH]c3ccc(Cl)cc23)NC(=O)[C@H](CCC(=O)O)NC1=O | Interleukin-1 receptor-like 2 (IL1RL2, Homo sapiens, UniProt Q9HB29) | IL-8 release, antagonist | A-431 | 3.2 µM, 18 h, with: IL-36γ | reference: untreated | remaining activity | 86.2% |
